Assay results pooled from the literature.
Each line is one published result; not all experiments were run side by side. ± gives the spread as reported.

SMILES | method | matrix | time | pH | setting | logD
CC(C)C[C@@H](NC(=O)[C@H](C)NC(=O)CNC(=O)[C@@H](NC=O)C(C)C)C(=O)N[C@@H](C)C(=O)N[C@@H](C(=O)N[C@H](C(=O)N[C@@H](C(=O)N[C@@H](Cc1c[nH]c2ccccc12)C(=O)N[C@H](CC(C)C)C(=O)N[C@@H](Cc1ccc2[nH]ccc2c1)C(=O)N[C@H](CC(C)C)C(=O)N[C@@H](Cc1c[nH]c2ccccc12)C(=O)N[C@H](CC(C)C)C(=O)N[C@@H](Cc1c[nH]c2ccccc12)C(=O)NCCO)C(C)C)C(C)C)C(C)C | UHPLC retention on C18 |  |  |  |  | 5.05
COc1ccc2c3c1O[C@H]1C(=O)C=C[C@H]4[C@@H](C2)N(C)CC[C@]314 |  | octanol/buffer | 1 h | pH 7.4 |  | 0.82
CCOC(=O)[C@](CC)(CCC[S+]([O-])CCOCCOCCNC(=O)OC(C)(C)C)NC(=O)c1ccc(C2CC2)c(Cc2ccc(F)cc2)n1 (stereo partly drawn) |  |  |  |  |  | 3.2
c1ccc(CCc2nnn[nH]2)cc1 |  |  |  | pH 7.4 | first measurement | -0.36
CC(C)C[C@@H](NC(=O)[C@H](C)NC(=O)CNC(=O)[C@@H](NC=O)C(C)C)C(=O)N[C@@H](C)C(=O)N[C@@H](C(=O)N[C@H](C(=O)N[C@@H](C(=O)N[C@@H](Cc1c[nH]c2ccccc12)C(=O)N[C@H](CC(C)C)C(=O)N[C@@H](Cc1ccc2cc[nH]c2c1)C(=O)N[C@H](CC(C)C)C(=O)N[C@@H](Cc1c[nH]c2ccccc12)C(=O)N[C@H](CC(C)C)C(=O)N[C@@H](Cc1c[nH]c2ccccc12)C(=O)NCCO)C(C)C)C(C)C)C(C)C | UHPLC retention on C18 |  |  |  |  | 5.57
O=C(O)CCc1ccccc1 |  |  |  | pH 7.4 | second measurement | -0.51
CCC(CNc1nc(-c2cn3ccnc3cc2C)nc2ccccc12)c1ccccc1 (stereo not drawn) |  |  |  |  |  | 4.1
NCCOCC(=O)N1CCCC(C(=O)NCc2nc(-c3ccc(-c4ccc(F)cc4)cc3)cs2)C1 (stereo not drawn) | shake flask | octanol/buffer |  | pH 7.4 |  | 1.4
CS(=O)(=O)NC(=O)NCc1ccccc1 |  |  |  | pH 7.4 | third measurement | -1.2
CC(c1cccc(-c2c[nH]cn2)c1)n1cc(-c2cccc3cn[nH]c23)c(=O)[nH]c1=O (stereo not drawn) |  | octanol/water |  | pH 7.4 |  | 2.25
CCOC(=O)C(CCCOC)NC(=O)c1ccc(C2CC2)c(Cc2ccc(F)cc2)n1 (stereo not drawn) |  |  |  |  |  | 3.3
CC(C)C[C@@H](NC(=O)[C@H](C)NC(=O)CNC(=O)[C@@H](NC=O)C(C)C)C(=O)N[C@@H](C)C(=O)N[C@@H](C(=O)N[C@H](C(=O)N[C@@H](C(=O)N[C@@H](Cc1c[nH]c2ccccc12)C(=O)N[C@H](CC(C)C)C(=O)N[C@@H](Cc1cc2ccccc2[nH]1)C(=O)N[C@H](CC(C)C)C(=O)N[C@@H](Cc1c[nH]c2ccccc12)C(=O)N[C@H](CC(C)C)C(=O)N[C@@H](Cc1c[nH]c2ccccc12)C(=O)NCCO)C(C)C)C(C)C)C(C)C | UHPLC retention on C18 |  |  |  |  | 6.29
Cn1c(=O)ccc2ccc(F)c(CCNC[C@H]3CN(c4ncc5c(n4)NC(=O)CO5)C(=O)O3)c21 | eLogD |  |  |  |  | 0.58
O=C1NC(=O)C(Cc2ccccc2)S1 (stereo not drawn) |  |  |  | pH 7.4 | second measurement | 1.04
CC1(C)NC(=O)N(c2cccc(S(F)(F)(F)(F)F)c2)C1=O | chromatographic HPLC |  |  | pH 7.4 |  | 3
Cc1n[nH]c2c(-c3cn(C(C)c4ccccc4)c(=O)[nH]c3=O)cccc12 (stereo not drawn) |  | octanol/water |  | pH 7.4 |  | 2.73
COc1ccc2c3c1O[C@H]1C(=O)C=C[C@@]4(O)[C@@H](C2)N(C)CC[C@]314 |  | octanol/buffer | 1 h | pH 7.4 |  | -0.06
Cc1nonc1Cn1nnc2c(N3CC[C@H](O)C3)nc(C(C)(C)C)nc21 |  |  |  | pH 7.4 |  | 3.68 ± 0.04
Cn1c(=O)ccc2ccc(F)c(CCNC[C@H]3CN(c4ccc5c(n4)NC(=O)CO5)C(=O)O3)c21 | eLogD |  |  |  |  | 1.7
CC(c1ccccc1)n1cc(-c2cccc3cn[nH]c23)c(=O)[nH]c1=O (stereo not drawn) |  | octanol/water |  | pH 7.4 |  | 2.37
CN1C(=O)Cc2ccc(F)c(CNCCCC3CN(c4ccc5c(n4)NC(=O)CO5)C(=O)O3)c21 (stereo not drawn) | eLogD |  |  |  |  | 1.06
COc1ccc2c3c1O[C@H]1[C@@H](O)CC[C@@]4(O)[C@@H](C2)N(C)CC[C@]314 |  | octanol/buffer | 1 h | pH 7.4 |  | -0.95
CN1C(=O)Cc2ccc(F)c(CCNC[C@H]3CN(c4ccc5c(n4)NC(=O)CO5)C(=O)O3)c21 | eLogD |  |  |  |  | 1.65
Cc1nc([C@@](C)(CC2CC2)NC(=O)c2cc(OCC(F)(F)F)c(C3CC3)cn2)no1 |  |  |  | pH 7.4 |  | 3.94 ± 0.07
